Assay results collected from several papers.
Protocols differ between the studies behind these lines.
Medium: plasma

| SMILES | host | route | dose | notes | quantity | value |
| --- | --- | --- | --- | --- | --- | --- |
| C#Cc1cccc(Nc2ncnc3cc(OC)c(OCCCN4CCOCC4)cc23)c1 | Sprague-Dawley rat | oral | 40 mg/kg |  | AUC | 20900 ng·h/mL |
| CC1(C)CNC(=O)c2ccccc21 | rat | intravenous | 1 mg/kg | single dose | AUC(0-inf) | 943 ng·h/mL |
| Cc1ccc(OCC(=O)N(Cc2cccs2)c2ccn[nH]2)cc1 | female Sprague-Dawley rat | oral | 30 mg/kg | single dose | AUC(0-t) | 29.1 ng·h/mL |
| CCCCC1NC(=O)c2ccccc21 (racemic) | Wistar rat | intravenous | 10 mg/kg |  | AUC | 13700 ng·h/mL |
| CN1Cc2c(Cl)cc(Cl)cc2C(c2cccc(S(=O)(=O)NCCOCCOCCNC(=O)C(O)C(O)C(=O)NCCOCCOCCNS(=O)(=O)c3cccc(C4CN(C)Cc5c(Cl)cc(Cl)cc54)c3)c2)C1 (stereo not shown) | male Sprague-Dawley rat | oral | 9 mg/kg |  | AUC | < 4 ng·h/mL |
| Cc1cc(/C=C/C#N)cc(C)c1Oc1nc(NC2CCN(Cc3ccc(P(C)(C)=O)cc3)CC2)nc2ccsc12 | male Sprague-Dawley rat | oral | 10 mg/kg |  | AUC | 1270 ng·h/mL |
| N[C@H](COc1ccccc1C(F)(F)F)c1ccccc1 | rat | intravenous | 5 mg/kg |  | AUC | 407 ng·h/mL |
| CN1Cc2c(Cl)cc(Cl)cc2C(c2cccc(S(=O)(=O)NCCNC(=O)C(O)C(O)C(=O)NCCNS(=O)(=O)c3cccc(C4CN(C)Cc5c(Cl)cc(Cl)cc54)c3)c2)C1 (stereo not shown) | male Sprague-Dawley rat | oral | 11 mg/kg |  | AUC | < 10 ng·h/mL |
| O=c1c2cc(Cl)ccc2sc2c(NCc3ccccc3)nc3ccccc3c12 | male Sprague-Dawley rat | intravenous | 3 mg/kg | single dose | AUC | 2420 ng·h/mL |
| CSCOC1C(=O)C2(C)C(OCSC)CC3OCC3(OC(C)=O)C2C(OC(=O)c2ccccc2)C2(O)CC(OC(=O)C(O)C(C=C(C)C)NC(=O)OC(C)(C)C)C(C)=C1C2(C)C (stereo not shown) | male Sprague-Dawley rat | intravenous | 1 mg/kg |  | AUC(0-inf) | 261 ng·h/mL |

Repeated from above:
| SMILES | host | route | dose | notes | quantity | value |
| --- | --- | --- | --- | --- | --- | --- |
| N[C@H](COc1ccccc1C(F)(F)F)c1ccccc1 | rat | intravenous | 5 mg/kg |  | AUC | 407 ng·h/mL |
